{"data": "Measured values gathered from unrelated publications", "note": "Lines come from different studies, so protocols differ.", "UniProt P08183, sequence (whole entry, looked up)": "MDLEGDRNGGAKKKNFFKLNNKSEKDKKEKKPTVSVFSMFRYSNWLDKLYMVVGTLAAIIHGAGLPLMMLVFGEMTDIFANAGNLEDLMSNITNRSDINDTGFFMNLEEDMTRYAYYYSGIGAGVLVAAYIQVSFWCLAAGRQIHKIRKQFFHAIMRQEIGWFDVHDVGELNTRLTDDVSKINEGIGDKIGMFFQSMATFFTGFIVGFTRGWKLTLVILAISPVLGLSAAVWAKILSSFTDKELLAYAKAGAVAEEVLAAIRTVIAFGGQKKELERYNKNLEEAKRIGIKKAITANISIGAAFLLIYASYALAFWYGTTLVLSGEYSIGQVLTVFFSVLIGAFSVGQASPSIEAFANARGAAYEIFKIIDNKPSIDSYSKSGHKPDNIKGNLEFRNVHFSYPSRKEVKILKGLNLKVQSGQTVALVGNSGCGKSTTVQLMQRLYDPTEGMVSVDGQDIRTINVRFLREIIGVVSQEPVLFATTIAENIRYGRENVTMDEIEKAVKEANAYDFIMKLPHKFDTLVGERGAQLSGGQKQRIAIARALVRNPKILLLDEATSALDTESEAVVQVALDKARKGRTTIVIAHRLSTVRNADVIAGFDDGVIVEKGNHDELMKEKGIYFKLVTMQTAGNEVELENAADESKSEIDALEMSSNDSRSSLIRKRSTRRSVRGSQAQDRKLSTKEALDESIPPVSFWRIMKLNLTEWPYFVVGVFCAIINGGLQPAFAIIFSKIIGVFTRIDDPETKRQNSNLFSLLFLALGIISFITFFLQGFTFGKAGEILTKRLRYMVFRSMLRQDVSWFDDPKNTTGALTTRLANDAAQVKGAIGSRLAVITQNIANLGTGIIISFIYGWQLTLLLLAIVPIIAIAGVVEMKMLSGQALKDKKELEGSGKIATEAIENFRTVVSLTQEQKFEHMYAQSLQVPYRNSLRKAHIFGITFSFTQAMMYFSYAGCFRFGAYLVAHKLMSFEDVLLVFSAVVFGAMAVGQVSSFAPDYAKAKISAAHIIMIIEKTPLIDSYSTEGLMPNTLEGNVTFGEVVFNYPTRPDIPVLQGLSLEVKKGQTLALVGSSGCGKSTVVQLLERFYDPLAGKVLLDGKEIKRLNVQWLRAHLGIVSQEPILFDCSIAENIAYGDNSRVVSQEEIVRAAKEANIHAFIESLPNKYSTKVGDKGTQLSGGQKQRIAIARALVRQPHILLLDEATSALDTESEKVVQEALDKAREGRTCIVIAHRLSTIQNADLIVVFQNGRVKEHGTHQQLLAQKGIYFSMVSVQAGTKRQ"}
{"Compound": "COc1cc2c(Oc3ccc4[nH]c(C)cc4c3F)ccnc2cc1OCC1(N)CC1", "test": "measured: grade 1 or 2 gingival bleeding", "system": "paediatric high-risk refractory sarcoma", "setting": "8 mg", "measurement": "incidence of adverse event", "value": "20%"}
{"Compound": "CN1CC[C@@H](c2c(O)cc(O)c3c(=O)cc(-c4ccc(C(F)(F)F)cc4Cl)oc23)[C@@H]1CO", "test": "measured: Neutropenia", "system": "AML", "setting": "oral, 150 mg, intermittent dosing", "measurement": "patients with adverse event", "value": "25%"}
{"Compound": "CO[C@H]1C[C@@H]2CC[C@@H](C)[C@@](O)(O2)C(=O)C(=O)N2CCCC[C@H]2C(=O)O[C@H]([C@H](C)C[C@@H]2CC[C@@H](OC(=O)NCCOCCOCCOCCOCCOCCOCCOCCOCCC(=O)N3CCc4cc(Cn5nc(-c6ccc7oc(N)nc7c6)c6c(N)ncnc65)ccc4C3)[C@H](OC)C2)C[C@@H](O)[C@H](C)/C=C(\\C)[C@@H](O)[C@@H](OC)C(=O)[C@H](C)C[C@H](C)/C=C/C=C/C=C/1C", "system": "patients with advanced solid tumours", "setting": "intravenous, dose not given, grade ≥3", "measurement": "incidence of Fatigue TEAE", "value": "3.5%"}
{"Compound": "Cc1cc(C(=O)NC(C)(C)COc2cccc3c2C(N)=NS(=O)(=O)N3)cc(C)n1", "tested on": "Salmonella typhimurium", "test": "Ames test, confirmatory", "system": "TA100", "setting": "333 µg/plate", "scale": "baseline: solvent control", "measurement": "revertant ratio", "value": 0.9}
{"Compound": "CC(=O)Oc1ccc2c3c1O[C@H]1[C@@H](OC(C)=O)C=C[C@H]4[C@@H](C2)N(C)CC[C@@]341", "system": "rat, whole blood", "setting": "10 nM, 4 months, -80 °C, long-term storage", "measurement": "stability bias", "value": "-13.8%"}
{"Compound": "C[C@@H](Oc1cc(-c2cnn(C3CCNCC3)c2)cnc1N)c1c(Cl)ccc(F)c1Cl", "tested on": "African green monkey cells", "setting": "5 days", "measurement": "CC50", "value": "4.42 µM"}
{"Compound": "CC(=O)O[C@H]1C=C[C@H]2[C@H]3Cc4ccc(O)c5c4[C@@]2(CCN3C)[C@H]1O5", "system": "rat, whole blood", "setting": "1000 nM, 4 freeze-thaw cycles", "measurement": "stability bias", "value": "3.95%"}
{"Compound": "CN1CC2c3ccccc3Oc3ccc(Cl)cc3C2C1 (stereo not shown)", "tested on": "African green monkey cells", "setting": "5 days", "measurement": "CC50", "value": "5.89 µM"}
{"Compound": "CC(C)CC(=O)OC[C@H]1O[C@@](C#N)(c2ccc3c(N)ncnn23)[C@H](O)[C@@H]1O", "tested on": "ATP-dependent translocase ABCB1 (ABCB1, Homo sapiens, UniProt P08183)", "system": "Caco-2", "setting": "0.9 µM, together with: verapamil 100 µM", "measurement": "Papp B to A", "value": "3.45 ×10⁻⁶ cm/s"}
{"Compound": "CSc1ccc2c(c1)C(N1CCN(C)CC1)Cc1ccccc1S2 (stereo not shown)", "tested on": "African green monkey cells", "setting": "5 days", "measurement": "CC50", "value": "7 µM"}
{"Compound": "O=C1c2c(O)c(=O)ccn2N([C@@H]2c3ccccc3SCc3c2ccc(F)c3F)[C@@H]2COCCN12", "system": "BALB/c mice, plasma", "setting": "oral, 0.5 mg/kg baloxavir marboxil, 12 h", "measurement": "plasma concentration", "value": "not detected"}
{"Compound": "CN1CCC(CN2c3ccccc3Sc3ccccc32)C1 (stereo not shown)", "tested on": "African green monkey cells", "setting": "5 days", "measurement": "CC50", "value": "14.8 µM"}
{"Compound": "COC(=O)[C@H]1[C@@H](OC(=O)c2ccccc2)C[C@@H]2CC[C@H]1N2C", "system": "rat whole blood", "setting": "500 nM, 4 h, room temperature", "measurement": "stability bias", "value": "-0.07%"}
